Results collected from several papers.
Values joined by “and” are separate records of one study, mostly repeats; a detail may differ. Numbers after ± are the reported error.
UCHL1: Ubiquitin carboxyl-terminal hydrolase isozyme L1 (UCHL1, Homo sapiens, UniProt P09936)
TOP2B: DNA topoisomerase 2-beta (TOP2B, Homo sapiens, UniProt Q02880)
VDR: Vitamin D3 receptor (VDR, Homo sapiens, UniProt P11473)
Voltage-dependent P/Q-type calcium channel subunit alpha-1A: Voltage-dependent P/Q-type calcium channel subunit alpha-1A (Homo sapiens, UniProt O00555)
ADRA2C: Alpha-2C adrenergic receptor (ADRA2C, Homo sapiens, UniProt P18825)
T1: ssDNA, aptamer; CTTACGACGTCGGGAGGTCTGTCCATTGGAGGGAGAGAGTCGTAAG
T2: G-quadruplex DNA MYC22 promoter G14T/G23T (Homo sapiens); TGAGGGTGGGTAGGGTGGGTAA
T3: RNA aptamer; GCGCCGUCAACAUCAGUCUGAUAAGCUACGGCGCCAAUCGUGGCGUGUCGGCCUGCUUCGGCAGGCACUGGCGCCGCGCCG

`Cc1ccc(-n2nc(Br)cc2C(=O)NCc2nocc2C(=O)O)cc1` gave a remaining activity of 100% (malate dehydrogenase; enzyme activity, inhibitor; 200 µM, pH 7.0, 1% DMSO, aggregation counter-screen).
With `C[C@H](CCC(C)(C)O)[C@H]1CC[C@H]2[C@@H]3CC=C4C[C@@](C)(O)CC[C@]4(C)[C@H]3CC[C@]12C` the Emax was 201% (Glutamate NMDA receptor; GRIN1/GRIN2A (Homo sapiens, UniProt Q05586+Q12879); ion current, positive modulator, automated patch clamp; HEK293 (stable line); added: glutamate 0.8 µM and glycine; relative to: current without compound).
`O=S(=O)(NC(C1CC1)C1(CO)CCCO1)c1cccc(Cl)c1O` (centres unmarked) has a remaining activity of 97% (malate dehydrogenase; enzyme activity, inhibitor; 200 µM, pH 7.0, 1% DMSO, aggregation counter-screen).
With `N#CC(=Cc1cccc(F)c1)C(=O)NCCc1ccccc1` the labelling was 30.3% (UCHL1; covalent, intact protein LC-MS; 12.5 µM).
The decatenated DNA of `O=c1nc(SCc2cc(F)cc(C(F)(F)F)c2)nc(SCc2ccc3nc(Cl)ccc3c2)[nH]1` is reported as 83.8% (TOP2B; decatenation; 7.8 µM, replicate 1).
`C=CC(=O)N1CCC(COCC(=O)N2CCN(c3nc(-c4cnc(N)nc4C(F)F)nc(N4CCOC[C@@H]4C)n3)CC2)CC1` gave a remaining binding of 94% (MET (Homo sapiens, UniProt P08581); KINOMEscan; 1 µM; relative to: DMSO control).
For `CC(=C/C(=O)O)/C=C/C=C(\C)C1C=C2C(C)(C)CCCC2(C)O1` (centres unmarked), “plasma membrane localization” read 0 (Rhodopsin (RHO, Homo sapiens, UniProt P08100, P23H); immunostaining, item: opsin; COS-7 transfected; 0.10 µM, unit not given; relative to: surface over total stained cells).
`COc1cc(C=C(C#N)C(N)=O)ccc1OC(F)F` gave a labelling of 14.6% (UCHL1; covalent, intact protein LC-MS; 12.5 µM).
The activation of `C=C1C(=O)O[C@@H]2C[C@@]3(C)CCCC(=C)[C@@H]3C[C@H]12` is reported as 1.45 fold (VDR; reporter gene, Gal4 hybrid reporter; 10 µM; relative to: vehicle).
`CC12CC3CC(C)(C1)CC(N)(C3)C2` gave an IC30 of 1780 nM (Voltage-dependent P/Q-type calcium channel subunit alpha-1A; ion current, antagonist, automated patch clamp).
`CC(C)Cc1nnc(NC(=O)CCl)s1` has a labelling of 24.1% (UCHL1; covalent, intact protein LC-MS; 12.5 µM).
For `NCCS(=O)(=O)O`, “normalised MST signal” read -0.0167 (SLC6A6 (Homo sapiens, UniProt P31641, Y138A); binding, microscale thermophoresis; 250 µM, room temperature, added: 50 nM labelled protein; higher = more binding).
The top effect of `O=C(O)c1cccc(N2C(=O)C(O)=C(C(=O)c3ccccc3)C2c2ccc([N+](=O)[O-])cc2)c1` (centres unmarked) is reported as 1.2 ± 0.1 (ESR1/YWHAZ, with 14-3-3 zeta (Homo sapiens, UniProt P03372+P63104); 14-3-3ζ/ERα peptide binding, stabilizer, fluorescence polarization; 200 µM, unit not given; relative to: DMSO).
`COc1ccc(S(=O)(=O)n2nc(NCc3ccc(Cl)cc3)nc2N)cc1`: “probe labeling increase” 1.1 fold (Lysophospholipase-like protein 1 (Mus musculus, UniProt Q3UFF7); enzyme activity, activator, gel-based ABPP; purified protein; concentration not given, added: FP-rhodamine; relative to: DMSO).
The inhibition of `CC1CN(CCOCCSc2ccc(Cl)cc2)CC(C)O1.O=C(O)C(=O)O` (centres unmarked) is reported as -6.9% (Trypanosoma cruzi; reporter translation, Renilla luciferase mRNA translation; cell-free extract; 40 µM; relative to: DMSO).
`CCN1CCN(c2cc(N3CCN(CC)CC3)nc(NCCNc3ccnc4cc(Cl)ccc34)n2)CC1` has an activation of 1.2 fold (VDR; reporter gene, Gal4 hybrid reporter; 20 µM; relative to: vehicle).
`NC1CC1(F)c1ccc(Cl)cc1` (centres unmarked) gave a kcat of 0.11 s⁻¹ (tyramine oxidase (Arthrobacter sp.); substrate, Lineweaver-Burk plot).
`CC1(C)CC2(C)OC(=O)NC2(C)c2ccccc21` (centres unmarked) gave a fold enrichment of 1.11 (Leucine-rich repeat serine/threonine-protein kinase 2, WD40 domain (LRRK2, Homo sapiens, UniProt Q5S007); binding, affinity selection mass spectrometry; relative to: other proteins in batch).
For `COc1cc(Nc2ncc3c(n2)-c2ccc(Cl)cc2C(c2c(F)cccc2OC)=NC3)ccc1C(=O)O`, the remaining activity was 105% (MAP2K1; kinase activity; 1 µM).
For `C#CCCC1(CC[C@H](NC(=O)NCCCCCCNC(=O)NCCNC(=O)COc2cccc([C@@H](CCc3ccc(OC)c(OC)c3)OC(=O)[C@@H]3CCCCN3C(=O)C(=O)C(C)(C)CC)c2)C(N)=O)N=N1.O=C(O)C(F)(F)F`, “normalized labeling ratio” read 5.21 (FKBP1A (Homo sapiens, UniProt P62942); photoaffinity labeling, in-gel fluorescence, item: Alexa Fluor 647 click label; 10 µM, UV irradiation 365 nm; relative to: probe over FKBP12 signal, higher = more labeling).
`Cc1cc(Oc2ncccc2CN2CCN(c3ccccc3Cl)CC2)ccc1-c1c(C)c(=O)[nH]c(=O)n1C` has a selectivity ratio of 7 (ADRA2C; binding, radioligand binding; added: [3H]rauwolscine; relative to: Ki alpha2A over Ki alpha2C).
With `Nc1ncnc2c1ncn2[C@@H]1O[C@H](COP(=O)(O)CP(=O)(O)OP(=O)(O)O)[C@@H](O)[C@H]1O` the specific binding was 2670 CCPM and 5290 CCPM and 8740 CCPM (P2X purinoceptor 1 (P2RX1, Homo sapiens, UniProt P51575, K140A); saturation binding; HEK293; 130 nM).
For `Cc1cc(Oc2ncccc2CN2CCN(Cc3ccccc3Cl)CC2)ccc1-c1c(C)c(=O)[nH]c(=O)n1C`, the selectivity ratio was 3 (ADRA2C; binding, radioligand binding; added: [3H]rauwolscine; relative to: Ki alpha2B over Ki alpha2C).
The Kd of `Nc1ncnc2c1ncn2[C@@H]1O[C@H](COP(=O)(O)OP(=O)(O)OP(=O)(O)O)[C@@H](O)[C@H]1O` is reported as 1860 nM (T1, ssDNA, aptamer; ITC).
`CCC1(O)CCCN(C(=O)c2ccc(-c3ccc(F)c(NC(=O)CCl)c3)cc2)C1` (centres unmarked) has a protein adduct of 76.5% (DNA dC->dU-editing enzyme APOBEC-3B, C-terminal domain (Homo sapiens, UniProt Q9UH17); covalent modifier, intact protein mass spectrometry, item: adduct +25721 Da; 250 µM, 3 h, 10-fold molar excess).
`N[C@@H](Cc1ccccc1)C(=O)O` — result for melting temperature: “no effect” (Phospho-2-dehydro-3-deoxyheptonate aldolase 2, chloroplastic (DHS2, Arabidopsis thaliana, UniProt Q00218); differential scanning fluorimetry; added: AAA 1 mM).
With `CC(=O)N[C@@H](CC(C)C)C(=O)N[C@@H](CC(=O)O)C(=O)N1CCC[C@H]1C(=O)N1CCC[C@H]1C(=O)N[C@@H](CC(C)C)C(=O)N[C@@H](Cc1c[nH]cn1)C(=O)N[C@@H](CO)C(=O)N[C@H](C(=O)N[C@@H](C)C(N)=O)[C@@H](C)OP(=O)(O)O` the binding entropy was -24.3 cal/(mol·K) (PLK1 (Homo sapiens, UniProt P53350); polo-box domain binding, isothermal titration calorimetry; concentration not given, 25 °C).
`O=c1[nH]ccn1-c1ccc(NS(=O)(=O)c2cc(Cl)cc(Cl)c2O)cc1` has a remaining activity of 78% (malate dehydrogenase; enzyme activity, inhibitor; 200 µM, pH 7.0, 1% DMSO, aggregation counter-screen).
Under binding, `CCCCC[N+](CCCCC)(CCCCC)CCCCC` is recorded as “binds” (T2, G-quadruplex DNA MYC22 promoter G14T/G23T (Homo sapiens); NMR).
`C[C@@H](c1ccc(-n2cnc3c(N)ncnc32)cc1)N1CCc2nn(C)c(Cc3ccccc3)c2C1=O` gave a remaining binding of 45% (CDK13 (Homo sapiens, UniProt Q14004); KINOMEscan; 0.1 µM; relative to: DMSO).
`Nc1nc2c(ncn2[C@@H]2O[C@H](COP(=O)(O)O)[C@@H](O)[C@H]2O)c(=O)[nH]1` has a reaction rate of 17.4 s⁻¹ and 16.4 s⁻¹ and 15.6 s⁻¹ (GUK1 (Homo sapiens, UniProt Q16774, D103A); enzyme activity, NADH-coupled; 2000 µM).
For `O=c1nc(SCc2cc(F)cc(C(F)(F)F)c2)nc(SCc2ccc3sccc3c2)[nH]1`, the decatenated DNA was 100% (TOP2B; decatenation; 7.8 µM, replicate 2).
The -TΔS of `Oc1ccc(/C=C/c2cc(O)cc(O)c2)cc1` is reported as 5.76 kcal/mol (O-methyltransferase (Sorghum bicolor, UniProt A0A1B6PFV1); ITC; added: MTA+).
`CN(CCO)c1cc2sc(/C=C(\C#N)c3ccc(C#N)cc3)cc2s1`: binding “no binding” (T3, RNA aptamer; fluorescence activation, native PAGE).
The Bmax of `Cc1ccnc([18F])c1-c1cccc(N2C[C@H](N3CCN(C(=O)c4nccs4)CC3)CC2=O)c1` is reported as 32.9 nmol/g (Monoglyceride lipase (Macaca mulatta, UniProt H9ESL3); PET Scatchard plot; rhesus monkey, brain HIP; baseline).
`CNCCCC12CCC(c3ccccc31)c1ccccc12` gave an inhibition of 79% (Voltage-dependent P/Q-type calcium channel subunit alpha-1A; ion current, antagonist; HEK293; 30 µM).
`CCn1ncc(CN2CCCC(C(=O)c3cccc(OC(C)C)c3)C2)c1C` (centres unmarked) gave an inhibition of -10.5% (Trypanosoma cruzi; reporter translation, Renilla luciferase mRNA translation; cell-free extract; 40 µM; relative to: DMSO).
With `O=C(O)C1=CCNCC1` the current density was -132 pA/pF and -26.1 pA/pF and -28.2 pA/pF and -68.4 pA/pF and -59.3 pA/pF and -21.1 pA/pF (BEST1 (Homo sapiens, UniProt O76090); whole-cell patch clamp; HEK293 transiently expressing channel; concentration not given, membrane potential -100 mV).
`O=c1nc(SCc2cc(F)cc(C(F)(F)F)c2)nc(SCc2ccc3nc(OCCN4CCOCC4)ccc3c2)[nH]1` has a linear DNA of 0% (TOP2A (Homo sapiens, UniProt P11388); DNA cleavage; 7.8 µM, replicate 2).
For `O=c1cc(-c2ccc([N+](=O)[O-])cc2)[nH]c2c(-c3ccc(Cl)cc3)c(Cc3ccccc3)nn12`, “melting temperature shift” read 4.1 °C (Inactive glycosyltransferase 25 family member 3 (CERCAM, Homo sapiens, UniProt Q5T4B2); thermal stability, binder, thermal proteome profiling; RD, cell lysate; 50 µM, 0.5% DMSO; relative to: DMSO vehicle).
`O=C(CCl)Cc1c(Cl)cccc1Cl` has a labelling of 22.3% (UCHL1; covalent, intact protein LC-MS; 12.5 µM).
The IC30 of `CCCN1CCCC[C@H]1C(=O)Nc1c(C)cccc1C` is reported as greater than 30000 nM (Voltage-dependent P/Q-type calcium channel subunit alpha-1A; ion current, antagonist, automated patch clamp).
The remaining activity of `O=C(NC1CCC1)c1ccc2nc(-c3cccc(NS(=O)(=O)NCCN4CCCCC4)c3)cn2c1` is reported as 81% (PIK3CA (Homo sapiens, UniProt P42336, I800L); enzyme activity; 10 µM).
`O=C(CCl)c1c(-c2ccc(F)cc2)[nH]c2ccccc12` gave a labelling of 9.38% (UCHL1; covalent, intact protein LC-MS; 12.5 µM).

A few entries again:
With `CC(=O)N[C@@H](CC(C)C)C(=O)N[C@@H](CC(=O)O)C(=O)N1CCC[C@H]1C(=O)N1CCC[C@H]1C(=O)N[C@@H](CC(C)C)C(=O)N[C@@H](Cc1c[nH]cn1)C(=O)N[C@@H](CO)C(=O)N[C@H](C(=O)N[C@@H](C)C(N)=O)[C@@H](C)OP(=O)(O)O` the binding entropy was -24.3 cal/(mol·K) (PLK1 (Homo sapiens, UniProt P53350); polo-box domain binding, isothermal titration calorimetry; concentration not given, 25 °C).
`O=c1[nH]ccn1-c1ccc(NS(=O)(=O)c2cc(Cl)cc(Cl)c2O)cc1` has a remaining activity of 78% (malate dehydrogenase; enzyme activity, inhibitor; 200 µM, pH 7.0, 1% DMSO, aggregation counter-screen).
Under binding, `CCCCC[N+](CCCCC)(CCCCC)CCCCC` is recorded as “binds” (T2, G-quadruplex DNA MYC22 promoter G14T/G23T (Homo sapiens); NMR).
`C[C@@H](c1ccc(-n2cnc3c(N)ncnc32)cc1)N1CCc2nn(C)c(Cc3ccccc3)c2C1=O` gave a remaining binding of 45% (CDK13 (Homo sapiens, UniProt Q14004); KINOMEscan; 0.1 µM; relative to: DMSO).
